Experimental data of several laboratories.
Protocols differ between the studies behind these lines.

SMILES	cell line	assay	setting	scale	endpoint	value
CCN(CC)C(=S)SSC(=S)N(CC)CC	BT-16	cell viability, MTT	10 µM, 72 h	–	inhibition	89.2%
CCn1cc(-c2cc(Cn3ccoc3=N)cc3c2CCN([C@@H](C)c2cc(OC)ccn2)C3=O)c(C(F)(F)F)n1	COLO-320-HSR	cell growth, inhibitor	120 h	–	EC50	0.132 µM
Cc1cc(Nc2ncc(Cl)c(Nc3ccccc3S(=O)(=O)C(C)C)n2)c(OC(C)C)cc1C1CCNCC1	CLB-BAR	phosphoproteomics LC-MS/MS, measured: PTPN11 phosphorylation	200 nM, 60 min	baseline: untreated	log2 fold change	-2.17
CC(/C=C/C(=O)NO)=C\[C@@H](C)C(=O)c1ccc(N(C)C)cc1	BT-16	cell viability, MTT	10 µM, 72 h	–	inhibition	94.3%
Cn1cc(-c2ccc(-c3cncc(Cl)c3N3CCC4(CCNC4=O)CC3)cc2)cn1	COLO 205	gene expression, microarray, measured: HIST4H4 mRNA	concentration not given, 6 h	baseline: untreated cells	log2 fold change	-1.42
COc1cnc2cccc(N3CCc4c(cc(Cn5ccnc5C)cc4-c4cn(C)nc4C(F)(F)F)C3=O)c2c1	Kasumi 1	cell growth, inhibitor	120 h	–	EC50	11.5 µM
CCc1cnc(N2CCC(c3nc(COc4ccc(-n5cnnn5)cc4)cs3)CC2)nc1	HEK-293T	RNA-seq GSEA, measured: HALLMARK_EPITHELIAL_MESENCHYMAL_TRANSITION	concentration not given	direction not given	normalized enrichment score	-0.915
COCCn1c2c([n+](Cc3cnccn3)c1C)C(=O)c1ccccc1C2=O	BT-16	cell viability, MTT	10 µM, 72 h	–	inhibition	95.3%
CC(C)NCC(O)c1ccc(O)c(O)c1 (stereo not shown)	mouse ventricular cardiomyocytes	–	dose not given, 0.243 s	–	sarcomere length	1.8 µm
CN1CCC(CNc2ccc3ncc(-c4cccc(OC(F)(F)F)c4)n3n2)CC1	BT-16	cell viability, MTT	10 µM, 72 h	–	inhibition	95.1%
O=C(/C=C/C=C/C=C/C1CCCCC1)NC1=C[C@@](O)(/C=C/C=C/C=C/C(=O)NC2=C(O)CCC2=O)[C@@H]2O[C@@H]2C1=O	dang	cell growth, inhibitor, CellTiter-Glo luminescence	78 h	baseline: day 0 cell count	GI50	19.6 µM
CCn1cc(-c2cc(Cn3ccnc3)cc3c2CCN([C@H](c2cc(OC)ccn2)C2CC2)C3=O)c(C(F)(F)F)n1	Calu-3	cell growth, inhibitor	120 h	–	EC50	24.6 µM
CN(C)c1ccc2cc(C(=O)NS(=O)(=O)c3ccccc3-c3ccccc3)oc2c1	ZR-75-1	Western blot	1 µM	–	onset of H3K23ac decline	≤ 10 min

Some of these lines once more:
SMILES	cell line	assay	setting	scale	endpoint	value
CCc1cnc(N2CCC(c3nc(COc4ccc(-n5cnnn5)cc4)cs3)CC2)nc1	HEK-293T	RNA-seq GSEA, measured: HALLMARK_EPITHELIAL_MESENCHYMAL_TRANSITION	concentration not given	direction not given	normalized enrichment score	-0.915
